# Measured values from different studies.
# Each line is one published result; not all experiments were run side by side. Several values in a cell are separate wells, animals, samples, runs or records. Numbers after ± are the reported error.
# Sequence of UniProt O60307 (whole entry, looked up): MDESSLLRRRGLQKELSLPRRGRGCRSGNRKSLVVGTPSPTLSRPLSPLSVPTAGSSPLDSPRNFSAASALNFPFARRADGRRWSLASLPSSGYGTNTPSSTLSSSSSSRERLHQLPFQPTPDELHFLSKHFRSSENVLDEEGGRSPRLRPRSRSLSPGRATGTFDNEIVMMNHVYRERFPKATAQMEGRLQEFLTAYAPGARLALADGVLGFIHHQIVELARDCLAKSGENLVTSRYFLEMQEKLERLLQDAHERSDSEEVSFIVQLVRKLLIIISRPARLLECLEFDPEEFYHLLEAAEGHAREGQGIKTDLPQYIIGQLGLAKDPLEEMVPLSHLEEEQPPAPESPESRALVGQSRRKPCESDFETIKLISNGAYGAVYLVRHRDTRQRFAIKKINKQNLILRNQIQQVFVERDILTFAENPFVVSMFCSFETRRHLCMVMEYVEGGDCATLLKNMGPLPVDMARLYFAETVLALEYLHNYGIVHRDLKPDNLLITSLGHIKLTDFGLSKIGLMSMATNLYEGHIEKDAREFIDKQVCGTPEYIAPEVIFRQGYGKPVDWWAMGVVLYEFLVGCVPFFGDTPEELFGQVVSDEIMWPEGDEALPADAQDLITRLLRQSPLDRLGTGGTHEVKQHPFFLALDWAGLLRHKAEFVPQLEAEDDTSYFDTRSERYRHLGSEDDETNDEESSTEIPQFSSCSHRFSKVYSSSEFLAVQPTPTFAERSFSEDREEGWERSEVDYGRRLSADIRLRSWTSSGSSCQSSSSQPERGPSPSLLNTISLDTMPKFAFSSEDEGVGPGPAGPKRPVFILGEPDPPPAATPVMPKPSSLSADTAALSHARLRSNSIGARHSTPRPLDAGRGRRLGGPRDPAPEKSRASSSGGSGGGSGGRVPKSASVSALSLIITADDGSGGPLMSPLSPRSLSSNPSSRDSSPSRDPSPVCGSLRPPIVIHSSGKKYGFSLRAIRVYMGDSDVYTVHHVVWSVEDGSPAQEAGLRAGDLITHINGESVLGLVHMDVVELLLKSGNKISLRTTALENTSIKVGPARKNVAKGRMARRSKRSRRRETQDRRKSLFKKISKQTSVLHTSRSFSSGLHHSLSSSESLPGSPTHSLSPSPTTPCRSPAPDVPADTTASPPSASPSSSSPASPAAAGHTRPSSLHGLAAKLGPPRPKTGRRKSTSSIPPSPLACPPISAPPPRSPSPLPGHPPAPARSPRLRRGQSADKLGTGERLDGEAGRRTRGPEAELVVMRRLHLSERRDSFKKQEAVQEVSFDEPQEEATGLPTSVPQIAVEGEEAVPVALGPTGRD
SMILES,tested on,test,test system,conditions,scale,quantity,value
Cl.[2H]C([2H])([2H])CC(=O)c1cnc(NC(=O)C2CC2)cc1Nc1cccc(-c2ncn(C([2H])([2H])[2H])n2)c1OC,,geometric mean,human,"oral, 20 mg once daily, day 1, fasted, liquid, multiple dose",,half-life,6.27 h
Cc1ccc([C@@H]2O[C@H](CO)[C@@H](O)[C@H](O)[C@H]2O)cc1Cc1ccc(-c2ccc(F)cc2)s1,,,Japanese type 2 diabetes patients,"200 mg, day 18, 24 h urine collection",reference: baseline,urinary magnesium excretion change,2.18 mg
CNC(=O)c1ccc(-c2cnc3ncc(Cc4ccc5ncccc5c4)n3n2)cc1F,,"measured: Dyspepsia, all grades",hepatocellular carcinoma patients,"oral, 600 mg twice daily, expansion cohort, any causality",,patients with adverse event,0%
OC[C@H]1O[C@@H](c2ccc(Cl)c(Cc3ccc(O[C@H]4CCOC4)cc3)c2)[C@H](O)[C@@H](O)[C@@H]1O,,,"Japanese type 1 diabetes patients, blood","25 mg, day 28",reference: baseline,change in uric acid,-0.29 µmol/L
C=CC(=O)Nc1cc(Nc2nccc(-c3cn(C)c4ccccc34)n2)c(OC)cc1N(C)CCN(C)C,,storage stability,human dried blood spots,"5 h, -80 °C, low QC level",,recovery,90.3%
CCOCc1nc(O)c(-c2nnc(Cc3ccc(Cl)cn3)o2)c(O)c1-c1c(OC)cccc1OC,,,"anaesthetized rats, plasma","intravenous infusion, 10 µg/kg/min for 15 min, 30 min washout",,plasma concentration,826 ± 16 nM
C[C@H](Oc1ccc(Br)cc1-c1ccon1)C(=O)O,,,"human, plasma","200 mg once daily, day 10",reference: day 1,accumulation ratio (Cmax),0.818
CC(C)C[C@H](NC(=O)C[C@H](O)[C@H](CC(C)C)NC(=O)[C@H](Cc1c[nH]cn1)NC(=O)CNC(=O)[C@@H](NC(=O)[C@H](C)NC(=O)[C@H](Cc1c[nH]c2ccccc12)NC(=O)[C@H](CCC(N)=O)NC(=O)[C@@H](Cc1ccccc1)NC(=O)COCCOCCNC(=O)CCC(C(=O)O)N1CCN(CC(=O)O)CCN(CC(=O)O)CCN(CC(=O)O)CC1)C(C)C)C(N)=O (some centres unmarked) [lutetium-177 labelled],,,"BALB/c nu/nu mice, kidneys","intravenous, 750 pmol, 1 h, added: PA 300 µg",,tissue uptake,4.8 ± 2.2 %ID/g
FC(F)(F)c1ccc(CNc2ccc(Cc3c[nH]c4ncc(Cl)cc34)cn2)cn1,,measured: Pruritus,patients with advanced solid tumours,"oral, dose not given, all grades, possibly related to drug",,adverse event incidence,13%
CC1(C)CCC(CN2CCN(c3ccc(C(=O)NS(=O)(=O)c4ccc(NCC5CCOCC5)c([N+](=O)[O-])c4)c(Oc4cnc5[nH]ccc5c4)c3)CC2)=C(c2ccc(Cl)cc2)C1,,,human,200 mg/day,,absolute neutrophil count,1900 cells/µL
Cn1nc2c(=O)n(C3CC3)ncc2c1[C@](O)(c1cnc(C(F)(F)F)c(Cl)c1)C(F)(F)F,,,"rat Sprague-Dawley male, blood","intravenous, 1 mg/kg",,"CLint,u",91.2 mL/min/kg
CC[C@@H]1[C@H](F)C(=O)N[C@@H]1COc1nccc2cc(C(N)=O)c(OC)cc12,"Microtubule-associated serine/threonine-protein kinase 3 (MAST3, Homo sapiens, UniProt O60307)","ATP-site probe binding, ActivX profiling",THP-1 cell lysate,"0.04 mM, Lys2 site",,inhibition,9.3%
Cn1cc(-c2ccc(-c3cncc(Cl)c3N3CCC4(CCNC4=O)CC3)cc2)cn1,COLO 205,"gene expression, microarray, measured: TIMP2 mRNA",,"concentration not given, 6 h",reference: untreated cells,log2 fold change,3.14
CO[C@H]1C[C@@H]2CC[C@@H](C)[C@@](O)(O2)C(=O)C(=O)N2CCCC[C@H]2C(=O)O[C@H]([C@H](C)C[C@@H]2CC[C@@H](OC(=O)NCCOCCOCCOCCOCCOCCOCCOCCOCCC(=O)N3CCc4cc(Cn5nc(-c6ccc7oc(N)nc7c6)c6c(N)ncnc65)ccc4C3)[C@H](OC)C2)C[C@@H](O)[C@H](C)/C=C(\C)[C@@H](O)[C@@H](OC)C(=O)[C@H](C)C[C@H](C)/C=C/C=C/C=C/1C,,,"tumour-bearing xenograft mice, plasma","intraperitoneal, 3 mg/kg, weekly dosing",,AUClast,52.5 µM·h
CCc1c(-c2ccccc2)c(-c2ccccc2)nn1-c1ccccc1-c1cccc(OCC(=O)O)c1,,,"Sprague-Dawley rat, stomach homogenate","oral, 10 mg/kg, 1 h",,concentration,6260 ng/mL and 4420 ng/mL
C=CC(=O)NC1CCN(c2ncc3ncnc(Nc4ccc(Oc5ccc6c(c5)ncn6C)c(C)c4)c3n2)CC1,,,"human, male","oral, 240 mg, treatment-emergent adverse event",,participants with headache,25%
C[C@@H](c1nc(-c2ccc(C#N)cc2)cs1)[C@](O)(Cn1cncn1)c1cc(F)ccc1F,,,healthy humans,"oral, dose not given, added: ketoconazole",,adverse event Diarrhea,0%
CN1CCc2ccc(C3CC3c3ccc4cc(C(=N)N)ccc4c3)cc2C1C1CCC1 (centres unmarked),,,octanol/buffer,"pH 11, urokinase ligand set",,logP,> 4.5
C=CC(=O)Nc1cc(Nc2nccc(-c3cn(C)c4ccccc34)n2)c(OC)cc1N(C)CCN(C)C,,,"human patients, plasma","oral, geometric mean",,oral clearance,14.8 L/h
CC(C)n1c(Nc2cccnc2)nc2cnc(Nc3ccc(N4CCN(C)CC4)cc3)nc21,,measured: nodal rhythm,healthy male subjects,"oral, 150 mg, study, added: rifampin",,subjects with adverse event,7.1%
O=C(Nc1ccc(OC(F)(F)Cl)cc1)c1cnc(N2CC[C@@H](O)C2)c(-c2ccn[nH]2)c1,,"per laboratory record, measured: AST increase",human patients,"oral, dose not given",,grade ≥2 event rate,0.1%
CCCCC[C@H](O)CC[C@@H]1[C@H]2Cc3cccc(OCC(=O)O)c3C[C@H]2C[C@H]1O,,LC-MS/MS,"Japanese PAH patients under 56.7 kg, plasma","inhaled, 54 µg",,geometric mean AUC(0-inf),0.87 ng·h/mL
COc1ccccc1NC(=O)CSc1nnc(-c2ccc(F)cc2)n1C,,,octanol/buffer,"pH 11, known kinase inactives set",,logP,2.4

# A few entries again:
SMILES,tested on,test,test system,conditions,scale,quantity,value
Cn1nc2c(=O)n(C3CC3)ncc2c1[C@](O)(c1cnc(C(F)(F)F)c(Cl)c1)C(F)(F)F,,,"rat Sprague-Dawley male, blood","intravenous, 1 mg/kg",,"CLint,u",91.2 mL/min/kg
CC[C@@H]1[C@H](F)C(=O)N[C@@H]1COc1nccc2cc(C(N)=O)c(OC)cc12,"Microtubule-associated serine/threonine-protein kinase 3 (MAST3, Homo sapiens, UniProt O60307)","ATP-site probe binding, ActivX profiling",THP-1 cell lysate,"0.04 mM, Lys2 site",,inhibition,9.3%
Cn1cc(-c2ccc(-c3cncc(Cl)c3N3CCC4(CCNC4=O)CC3)cc2)cn1,COLO 205,"gene expression, microarray, measured: TIMP2 mRNA",,"concentration not given, 6 h",reference: untreated cells,log2 fold change,3.14
